Results pooled from the literature.
Numbered parts are unrelated; each lists some results of a single study. pIC50: −log10 of the molar value. Ends that are not written are not given here.

Set 1
Cell line: HEK-293T/ACE2
Concentration: 10 µM
Time: 16 h
Reference: vehicle
Measurement: viability
Nc1nc(O)c2ncn(COC(CO)CO)c2n1: 100%
CC(NCCc1ccc(O)cc1)C(O)c1ccc(O)cc1 (stereo not drawn): 101%
CC[C@@H](CO)NCCN[C@@H](CC)CO: 100%

Set 2
Target: Replicase polyprotein 1ab, nsp13 helicase (rep, Severe acute respiratory syndrome coronavirus 2, UniProt P0DTD1)
Read-out: helicase activity
Organism: SARS-CoV-2
Measurement: pIC50
CCN(CC)C(=S)S: 4.32
O=C1C(c2ccccn2)=[N+]([O-])c2ccccc21: 4.89
O=C(O)c1ccc(SSc2ccc(C(=O)O)cn2)nc1: 5.75
CN=c1nc(-c2ccccc2)n(-c2ccccc2)s1: 6.14
CC(C)N[C@@H]1CCn2c(=O)[nH]c3cccc(c32)[C@H]1O: 4.05
O=[N+]([O-])C=Cc1ccc2c(c1)OCO2: 4.67
O=C(/C=C/c1ccc2ccccc2n1)c1ccncc1: 5.42
CC(=O)[O][Pt]([NH2])([Cl])([Cl])([NH]C1CCCCC1)[O]C(C)=O: 4.88
C=CC(=O)c1ccc2ccccc2c1: 5.02
O=C(O)c1ccc(N2C(=O)/C(=C\c3ccc(-c4ccc([N+](=O)[O-])cc4)o3)C=C2c2ccccc2)cc1: 4.83
O=C(O)[C@@H](S)[C@@H](S)C(=O)O: 5.36
O=C1C=Cc2cc(Br)ccc2C1=O: 5.53

Mixed results
rep main protease: Replicase polyprotein 1ab, main protease (rep, Severe acute respiratory syndrome coronavirus 2, UniProt P0DTD1)
VSSQCVNLTTRTQLP  responding donors (human CD4 T cells; AIM; peptide): 8%
CCc1ccc(Sc2cc(C(=O)NCCCN3CCCC(C)C3)c3ccccc3n2)cc1 (stereo not drawn)  AC50 (SARS-CoV-2; cytopathic effect; USA_WA1/2020): 12.6 µM
CC[C@H](C)[C@H](NC(=O)[C@H](CC(C)C)NC(=O)[C@H](Cc1c[nH]c2ccccc12)NC(=O)[C@H](CCC(N)=O)NC(=O)[C@@H](NC(=O)[C@H](Cc1ccccc1)NC(=O)[C@H](C)NC(=O)[C@H](CCCCNC(=O)COCCOCCNC(=O)COCCOCCNC(=O)CC[C@H](NC(=O)CCCCCCCCCCCCCCCCCCC(=O)O)C(=O)O)NC(=O)[C@H](CCC(N)=O)NC(=O)[C@H](C)NC(=O)[C@@H](NC(=O)[C@H](CCCCN)NC(=O)[C@H](CC(=O)O)NC(=O)[C@H](CC(C)C)NC(=O)C(C)(C)NC(=O)[C@@H](NC(=O)[C@H](CO)NC(=O)[C@H](Cc1ccc(O)cc1)NC(=O)[C@H](CC(=O)O)NC(=O)[C@H](CO)NC(=O)[C@@H](NC(=O)[C@H](Cc1ccccc1)NC(=O)[C@@H](NC(=O)CNC(=O)[C@H](CCC(=O)O)NC(=O)C(C)(C)NC(=O)[C@@H](N)Cc1ccc(O)cc1)[C@@H](C)O)[C@@H](C)O)[C@@H](C)CC)[C@@H](C)CC)C(C)C)C(=O)N[C@@H](C)C(=O)NCC(=O)NCC(=O)N1CCC[C@H]1C(=O)N[C@@H](CO)C(=O)N[C@@H](CO)C(=O)NCC(=O)N[C@@H](C)C(=O)N1CCC[C@H]1C(=O)N1CCC[C@H]1C(=O)N1CCC[C@H]1C(=O)N[C@@H](CO)C(N)=O  AUC(0-tau) (human, plasma; subcutaneous, 5/5/10/10 mg escalation, day 1, tau 168 h, geometric mean): 41900 ng·h/mL
QPLRKLCILHRNPGRCYQKIPAFYYNQKKKQCEGFTWSGCGGNSNRFKTIEECRRTCIRK (dendrotoxin I; ends and bridges not checked; cysteine pairing not given here; sequence looked up)  DTX substates ended by full opening (maxi-KCa channel, rat muscle; channel block, planar bilayer single-channel; 460 nM, internal site, with: BPTI): 96.1%
AIKLDDKDPNFKDQV  responding donors (human CD4 T cells; AIM; peptide): 8%
O=C(O)c1ccc(Cl)cc1O  inhibition (rep main protease; reporter gene (mKate2), inhibitor; 20 µM): -0.662%
Cc1cc(-c2ccc(/C=C3/SC(Nc4ccc(Cl)c(C(=O)O)c4)=NC3=O)o2)c([N+](=O)[O-])cc1C  pIC50 (rep main protease; enzyme activity, inhibitor): < 4.70
O=C(O)c1cc(=O)cc(C(=O)O)o1  inhibition (rep main protease; reporter gene (Gaussia luciferase), inhibitor; 20 µM): 2.07%
CCCN(CCC)CCCNC(=O)C1CCCN(Cc2nc(-c3ccc(Cl)cc3)oc2C)C1 (stereo not drawn)  maximal response (SARS-CoV-2; cytopathic effect, cell-based CPE; USA_WA1/2020; round 2, 5-point dilution): 85.1%

Some of these lines once more (set 2):
CN=c1nc(-c2ccccc2)n(-c2ccccc2)s1: 6.14
CC(C)N[C@@H]1CCn2c(=O)[nH]c3cccc(c32)[C@H]1O: 4.05
O=[N+]([O-])C=Cc1ccc2c(c1)OCO2: 4.67
